Results collected from several papers.
± marks the error that the study gave.
Cell line: HepG2

CC12NC(=S)NC(c3c(ccc4ccccc34)O1)C2C(=O)Nc1cccnc1 (centres unmarked) — inhibition (cell growth or viability, MTT; 10 µM): 46.5%
COc1ccc2cc3[n+](cc2c1OC)CCc1cc2c(cc1-3)OCO2 — DiI-LDL uptake (5 µM, 24 h, unit not given; baseline: vehicle): 1.38
CCN1C(=O)/C(=C\c2ccc(F)cc2)S/C1=N/N=C(\C)c1ccccn1 — inhibition (cell growth or viability, SRB; 100 µg/mL, 48 h): 66.9%
COc1cc(C2Oc3cc([C@H]4Oc5cc(O)cc(O)c5C(=O)[C@@H]4O)ccc3OC2CO)ccc1O (some centres unmarked) — OCR (Seahorse respirometry; concentration not given, 1 h, dosed at MMP IC50, together with: 1 µM FCCP; baseline: basal): 48.4 ± 1.58%
COc1ccc2c(c1)c1c(n2CO)CN2CCc3cc(OC)c(OCc4ccc(C)cc4)cc3C2C1 (centres unmarked) — protein level (Western blot, item: PCSK9; 5 µM, 24 h, unit not given; baseline: vehicle): 0.92 ± 0.09
CC12NC(=S)NC(c3c(ccc4ccccc34)O1)C2C(=O)Nc1ccccc1 (centres unmarked) — inhibition (cell growth or viability, MTT; 10 µM): 65.4%
CNC(=O)c1cc(O[C@H]2CC[C@H](NC(=O)Nc3ccc(Cl)c(C(F)(F)F)c3)CC2)ccn1 — EC50 (cell growth or viability, MTT; 72 h): 7 µM
CN1CCN(c2nc3cc(C(F)(F)F)ccc3n3cccc23)CC1 — EC50 (phospholipidosis induction, inducer, high-content imaging; 24 h, primary screen): 8 µM
COc1ccc(-c2ccc(-c3ccc(C(=N)N)nc3)s2)cc1 — mRNA level (real-time PCR, item: CDK1; 0.1 µM, 8 h, unit not given; baseline: untreated): 0.37 ± 0.04
COc1ccc2c(c1)c1c(n2CO)CN2CCc3cc(OC)c(OCc4cccc(F)c4)cc3C2C1 (centres unmarked) — protein level (Western blot, item: PCSK9; 5 µM, 24 h, unit not given; baseline: vehicle): 0.84 ± 0.08
NC(N)=NC(=O)c1nc(Cl)c(N2CCCCCC2)nc1N — EC50 (phospholipidosis induction, inducer, high-content imaging; 24 h, primary screen): 13 µM
Cc1ccc(NC(=O)CN2CCN(c3nc4ccccc4[nH]c3=O)CC2)cc1 — IC50 (cell growth or viability, MTT; 24 h): 7.82 µM
COC(=O)C[C@H](NC(=O)[C@H](C)NC(=O)[C@@H](NC(=O)OCc1ccccc1)C(C)C)C(=O)CF — apoptosis inhibition (apoptosis and caspase activation, annexin V-FITC/PI; 10 µM, 2 h pretreatment, together with: 2.5 µM other inducer for 24 h): inhibited
COc1cc(-c2ccc(-c3ccc(C(=N)N)nc3)s2)cc(OC)c1OC — mRNA level (real-time PCR, item: caspase-3; 0.1 µM, 8 h, unit not given; baseline: untreated): 3.37 ± 0.25
COc1cc2c(cc1OCc1ccc(C)cc1)CCN1Cc3c(c4ccccc4n3CO)CC21 (centres unmarked) — protein level (Western blot, item: PCSK9; 5 µM, 24 h, unit not given; baseline: vehicle): 0.69
C/C(=N\N=C1/NC(=O)/C(=C\c2ccc(Cl)cc2)S1)c1ccccn1 — inhibition (cell growth or viability, SRB; 100 µg/mL, 48 h): 61%
COc1cc2c(cc1OCc1ccccc1)CCN1Cc3c(c4c(Cl)cccc4n3CO)CC21 (centres unmarked) — protein level (Western blot, item: PCSK9; 5 µM, 24 h, unit not given; baseline: vehicle): 0.86
O=C(Nc1nc2ccc([N+](=O)[O-])cc2s1)C(c1ccccc1)S(=O)(=O)O (centres unmarked) — insulin-induced AKT phosphorylation (item: phospho-AKT/AKT; 16 µM, 2 h, together with: insulin 50 nM 30 min; baseline: vehicle): 260%
CC(=O)c1s/c(=N/N=C(\C)c2ccccn2)[nH]c1C — inhibition (cell growth or viability, SRB; 100 µg/mL, 48 h): 65.2%
CCCCN(CCCC)CC(O)c1cc(Cl)cc2c1-c1ccc(Cl)cc1/C2=C/c1ccc(Cl)cc1 (centres unmarked) — CC50 (cell growth or viability): > 20 µM
CSc1ccc2c(c1)C(N1CCN(C)CC1)Cc1ccccc1S2 (centres unmarked) — EC50 (phospholipidosis induction, inducer, high-content imaging; 24 h, confirmation screen): 6.1 ± 0.4 µM
CNC(=O)c1cc(Oc2ccc(NC(=O)Nc3ccc(Cl)c(C(F)(F)F)c3)cc2)ccn1 — IC50 (cell proliferation, MTT; 48 h, miR-140-3p plus mutant PXR): 1.74 ± 0.47 µM
CCN1C(=O)/C(=C\c2ccc(OC)cc2)S/C1=N/N=C(\C)c1ccccn1 — inhibition (cell growth or viability, SRB; 100 µg/mL, 48 h): 62.7%
COc1ccc2c(c1)c1c(n2CO)CN2CCc3cc(OCc4ccc(C)cc4)c(OC)cc3C2C1 (centres unmarked) — protein level (Western blot, item: PCSK9; 5 µM, 24 h, unit not given; baseline: vehicle): 0.95 ± 0.08
COc1ccc(-c2ccc(-c3ccc(C(=N)N)nc3)s2)cc1Cl — mRNA level (real-time PCR, item: CDK1; 0.1 µM, 8 h, unit not given; baseline: untreated): 0.51 ± 0.15
COc1cc2nc(N3CCN(C(=O)OCc4ccccc4)[C@H](C(=O)NC(C)(C)C)C3)nc(N)c2cc1OC — EC50 (phospholipidosis induction, inducer, high-content imaging; 24 h, primary screen): 4 µM
COc1ccc(/C=C2/S/C(=N/N=C(\C)c3ccccn3)NC2=O)cc1 — inhibition (cell growth or viability, SRB; 100 µg/mL, 48 h): 66.9%
COc1cccc2c1C(=O)c1c(O)c3c(c(O)c1C2=O)C[C@@](O)(C(=O)CO)C[C@@H]3O[C@H]1C[C@H](N)[C@H](O)[C@H](C)O1 — mRNA level (real-time PCR, item: TXNRD1; 0.1 µM, 8 h, unit not given; baseline: untreated): 0.47 ± 0.1
OCCN1CCN(CC/C=C2/c3ccccc3Sc3ccc(C(F)(F)F)cc32)CC1 — EC50 (phospholipidosis induction, inducer, high-content imaging; 24 h, confirmation screen): 7.6 ± 4.4 µM
CCc1ccc(CCOc2ccc(CC3SC(=O)NC3=O)cc2)nc1 (centres unmarked) — point of departure (Bayesian modelling, item: mitochondrial stress biomarkers): 10 to 100 µM
Cc1[nH]c(=O)nc2c1c(=O)oc1ccc3ccccc3c12 — inhibition (cell growth or viability, MTT; 10 µM): 36.5%
CC(C)(C)[C@]1(O)CCN2C[C@H]3c4ccccc4CCc4cccc(c43)[C@@H]2C1 — EC50 (phospholipidosis induction, LipidTOX high-content imaging; 24 h, confirmation screen): 4.9 ± 1.2 µM
COc1cc([C@@H]2c3cc4c(cc3[C@@H](O[C@@H]3O[C@@H]5CO[C@@H](c6cccs6)O[C@H]5[C@H](O)[C@H]3O)[C@H]3COC(=O)[C@H]23)OCO4)cc(OC)c1O — EC50 (cell proliferation): 7.7 µM
COc1ccc2c(c1)c1c(n2CO)CN2CCc3cc4c(cc3C2C1)OCO4 (centres unmarked) — protein level (Western blot, item: PCSK9; 5 µM, 24 h, unit not given; baseline: vehicle): 0.86
C/C(=N\N=c1/[nH]c(C)c(/N=N/c2ccc(C)cc2)s1)c1ccccn1 — inhibition (cell growth, SRB; 100 µg/mL, 48 h): > 75%
Nc1ccc2c(c1)C(=O)c1ccccc1C2=O — OCR (Seahorse respirometry; concentration not given, 1 h, dosed at MMP IC50, together with: 1 µM FCCP; baseline: basal): 164 ± 3.4%
CCN1C(=O)/C(=C\c2ccc(Cl)cc2)S/C1=N/N=C(\C)c1ccccn1 — inhibition (cell growth or viability, SRB; 100 µg/mL, 48 h): 60.2%
CC12NC(=O)NC(c3c(ccc4ccccc34)O1)C2C(=O)Nc1ccccc1 (centres unmarked) — inhibition (cell growth or viability, MTT; 10 µM): 16.5%
CCCCCCCC[N+](CCCCCCCC)(CCCCCCCC)CCCCCCCC.[Br-] — maximal OCR (MMP IC50, 1 h, together with: FCCP 1 µM; baseline: basal OCR): 224.1 ± 1.98%
CCN1C(=O)C(C)S/C1=N/N=C(\C)c1ccccn1 (centres unmarked) — inhibition (cell growth or viability, SRB; 100 µg/mL, 48 h): 60.2%
COc1ccc(CC/N=C(\N)CC(O)c2cc3ccccc3c3ccccc23)cc1 (centres unmarked) — CC50 (cell growth or viability): 9 µM

For quick reference, copied from above:
Cc1ccc(NC(=O)CN2CCN(c3nc4ccccc4[nH]c3=O)CC2)cc1 — IC50 (cell growth or viability, MTT; 24 h): 7.82 µM
COc1ccc2c(c1)c1c(n2CO)CN2CCc3cc4c(cc3C2C1)OCO4 (centres unmarked) — protein level (Western blot, item: PCSK9; 5 µM, 24 h, unit not given; baseline: vehicle): 0.86
CN1CCN(c2nc3cc(C(F)(F)F)ccc3n3cccc23)CC1 — EC50 (phospholipidosis induction, inducer, high-content imaging; 24 h, primary screen): 8 µM
Nc1ccc2c(c1)C(=O)c1ccccc1C2=O — OCR (Seahorse respirometry; concentration not given, 1 h, dosed at MMP IC50, together with: 1 µM FCCP; baseline: basal): 164 ± 3.4%
NC(N)=NC(=O)c1nc(Cl)c(N2CCCCCC2)nc1N — EC50 (phospholipidosis induction, inducer, high-content imaging; 24 h, primary screen): 13 µM
C/C(=N\N=C1/NC(=O)/C(=C\c2ccc(Cl)cc2)S1)c1ccccn1 — inhibition (cell growth or viability, SRB; 100 µg/mL, 48 h): 61%
